Measured values collected from several papers.
Numbered parts are unrelated; each lists some results of a single study. Substitutions count along the parent as printed.
UniProt P49137, sequence (whole entry, looked up): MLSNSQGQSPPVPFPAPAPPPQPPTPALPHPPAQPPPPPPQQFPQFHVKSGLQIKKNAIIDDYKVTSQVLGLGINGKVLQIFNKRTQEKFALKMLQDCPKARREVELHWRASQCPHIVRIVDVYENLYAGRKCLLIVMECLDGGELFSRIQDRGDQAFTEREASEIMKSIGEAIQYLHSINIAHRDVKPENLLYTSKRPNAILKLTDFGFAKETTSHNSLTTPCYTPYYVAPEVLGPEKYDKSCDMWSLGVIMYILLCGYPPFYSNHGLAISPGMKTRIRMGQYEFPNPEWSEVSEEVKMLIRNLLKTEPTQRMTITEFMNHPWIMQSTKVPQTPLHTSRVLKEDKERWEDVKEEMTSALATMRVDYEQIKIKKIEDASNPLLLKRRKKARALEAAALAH
UniProt P22607, sequence (whole entry, looked up): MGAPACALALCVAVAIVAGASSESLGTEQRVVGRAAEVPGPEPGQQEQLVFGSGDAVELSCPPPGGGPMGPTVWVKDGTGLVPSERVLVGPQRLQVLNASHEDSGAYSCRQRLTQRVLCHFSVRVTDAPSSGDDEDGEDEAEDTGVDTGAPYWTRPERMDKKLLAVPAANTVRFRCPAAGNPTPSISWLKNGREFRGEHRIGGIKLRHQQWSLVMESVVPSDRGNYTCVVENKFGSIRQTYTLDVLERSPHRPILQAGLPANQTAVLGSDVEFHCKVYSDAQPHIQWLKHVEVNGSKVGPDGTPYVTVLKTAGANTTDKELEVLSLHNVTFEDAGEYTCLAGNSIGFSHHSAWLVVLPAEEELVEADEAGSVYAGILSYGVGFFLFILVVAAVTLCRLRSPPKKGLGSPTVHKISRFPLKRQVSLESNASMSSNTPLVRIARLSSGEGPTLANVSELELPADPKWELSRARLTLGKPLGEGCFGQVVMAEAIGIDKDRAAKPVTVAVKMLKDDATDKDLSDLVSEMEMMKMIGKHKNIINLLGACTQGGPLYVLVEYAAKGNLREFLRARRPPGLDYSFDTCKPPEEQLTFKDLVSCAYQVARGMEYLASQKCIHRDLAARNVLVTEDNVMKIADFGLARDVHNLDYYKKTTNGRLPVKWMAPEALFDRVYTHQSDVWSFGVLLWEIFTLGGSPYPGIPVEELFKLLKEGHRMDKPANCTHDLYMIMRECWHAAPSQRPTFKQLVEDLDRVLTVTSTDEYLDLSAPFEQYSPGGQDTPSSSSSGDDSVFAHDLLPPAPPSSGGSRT
UniProt Q32MK0, sequence (whole entry, looked up): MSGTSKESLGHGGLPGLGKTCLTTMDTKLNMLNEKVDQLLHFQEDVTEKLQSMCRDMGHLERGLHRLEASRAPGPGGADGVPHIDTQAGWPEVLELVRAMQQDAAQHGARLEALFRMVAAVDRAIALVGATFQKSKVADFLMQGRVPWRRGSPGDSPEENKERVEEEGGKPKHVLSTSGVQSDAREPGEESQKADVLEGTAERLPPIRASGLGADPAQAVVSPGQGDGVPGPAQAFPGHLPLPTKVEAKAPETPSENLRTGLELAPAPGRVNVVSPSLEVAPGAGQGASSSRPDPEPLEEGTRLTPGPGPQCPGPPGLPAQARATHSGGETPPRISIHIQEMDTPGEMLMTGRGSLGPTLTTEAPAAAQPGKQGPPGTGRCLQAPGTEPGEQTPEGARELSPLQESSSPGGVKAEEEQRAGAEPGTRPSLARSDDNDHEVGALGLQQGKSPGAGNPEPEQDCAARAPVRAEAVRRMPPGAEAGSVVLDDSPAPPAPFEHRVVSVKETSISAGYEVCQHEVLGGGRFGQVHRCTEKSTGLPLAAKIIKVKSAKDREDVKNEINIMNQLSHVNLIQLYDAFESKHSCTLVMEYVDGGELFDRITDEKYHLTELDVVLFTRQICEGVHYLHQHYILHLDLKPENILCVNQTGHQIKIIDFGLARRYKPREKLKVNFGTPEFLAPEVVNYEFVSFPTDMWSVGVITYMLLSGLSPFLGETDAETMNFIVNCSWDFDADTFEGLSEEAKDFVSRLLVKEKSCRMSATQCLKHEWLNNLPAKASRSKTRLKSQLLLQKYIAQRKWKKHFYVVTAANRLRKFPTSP
UniProt P43403, sequence (whole entry, looked up): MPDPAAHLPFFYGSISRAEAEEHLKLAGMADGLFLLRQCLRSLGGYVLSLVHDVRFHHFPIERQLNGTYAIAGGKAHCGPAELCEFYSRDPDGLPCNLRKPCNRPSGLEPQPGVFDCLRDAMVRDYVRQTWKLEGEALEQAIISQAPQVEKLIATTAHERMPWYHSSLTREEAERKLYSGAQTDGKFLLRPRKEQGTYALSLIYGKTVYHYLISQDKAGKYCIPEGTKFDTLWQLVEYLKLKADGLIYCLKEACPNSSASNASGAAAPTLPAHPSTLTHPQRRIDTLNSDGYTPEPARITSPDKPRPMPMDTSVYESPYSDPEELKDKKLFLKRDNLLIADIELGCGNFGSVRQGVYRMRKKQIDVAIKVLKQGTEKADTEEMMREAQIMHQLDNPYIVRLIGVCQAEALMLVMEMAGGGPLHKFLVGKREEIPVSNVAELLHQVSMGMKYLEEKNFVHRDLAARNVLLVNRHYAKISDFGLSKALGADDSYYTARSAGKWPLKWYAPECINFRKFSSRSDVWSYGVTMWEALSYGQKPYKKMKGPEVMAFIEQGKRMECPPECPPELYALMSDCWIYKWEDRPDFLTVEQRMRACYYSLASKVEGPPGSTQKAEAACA
UniProt Q86UE8, sequence (whole entry, looked up): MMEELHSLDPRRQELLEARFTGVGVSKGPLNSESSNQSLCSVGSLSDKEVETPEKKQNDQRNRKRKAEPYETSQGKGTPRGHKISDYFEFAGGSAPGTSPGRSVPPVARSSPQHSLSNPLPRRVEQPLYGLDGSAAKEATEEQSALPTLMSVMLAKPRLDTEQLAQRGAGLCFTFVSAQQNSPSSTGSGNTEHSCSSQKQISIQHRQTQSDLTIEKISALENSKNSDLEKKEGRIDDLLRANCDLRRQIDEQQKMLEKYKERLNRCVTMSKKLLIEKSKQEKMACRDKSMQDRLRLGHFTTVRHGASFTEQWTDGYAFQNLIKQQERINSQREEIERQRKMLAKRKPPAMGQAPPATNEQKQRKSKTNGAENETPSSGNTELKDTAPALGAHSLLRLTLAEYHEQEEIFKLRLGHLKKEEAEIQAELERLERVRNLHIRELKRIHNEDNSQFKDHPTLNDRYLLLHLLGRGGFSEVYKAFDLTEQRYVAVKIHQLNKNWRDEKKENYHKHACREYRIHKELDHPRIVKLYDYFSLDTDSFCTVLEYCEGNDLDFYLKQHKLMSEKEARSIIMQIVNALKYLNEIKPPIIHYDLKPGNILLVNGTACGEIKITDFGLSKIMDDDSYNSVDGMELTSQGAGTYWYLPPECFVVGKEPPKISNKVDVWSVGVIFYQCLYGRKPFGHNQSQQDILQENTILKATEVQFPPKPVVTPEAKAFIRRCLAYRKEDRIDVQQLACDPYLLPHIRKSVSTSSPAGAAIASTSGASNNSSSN

Series 1
Target: Vascular endothelial growth factor receptor 2 (KDR, Homo sapiens, UniProt P35968)
UniProt P35968, sequence (whole entry, looked up): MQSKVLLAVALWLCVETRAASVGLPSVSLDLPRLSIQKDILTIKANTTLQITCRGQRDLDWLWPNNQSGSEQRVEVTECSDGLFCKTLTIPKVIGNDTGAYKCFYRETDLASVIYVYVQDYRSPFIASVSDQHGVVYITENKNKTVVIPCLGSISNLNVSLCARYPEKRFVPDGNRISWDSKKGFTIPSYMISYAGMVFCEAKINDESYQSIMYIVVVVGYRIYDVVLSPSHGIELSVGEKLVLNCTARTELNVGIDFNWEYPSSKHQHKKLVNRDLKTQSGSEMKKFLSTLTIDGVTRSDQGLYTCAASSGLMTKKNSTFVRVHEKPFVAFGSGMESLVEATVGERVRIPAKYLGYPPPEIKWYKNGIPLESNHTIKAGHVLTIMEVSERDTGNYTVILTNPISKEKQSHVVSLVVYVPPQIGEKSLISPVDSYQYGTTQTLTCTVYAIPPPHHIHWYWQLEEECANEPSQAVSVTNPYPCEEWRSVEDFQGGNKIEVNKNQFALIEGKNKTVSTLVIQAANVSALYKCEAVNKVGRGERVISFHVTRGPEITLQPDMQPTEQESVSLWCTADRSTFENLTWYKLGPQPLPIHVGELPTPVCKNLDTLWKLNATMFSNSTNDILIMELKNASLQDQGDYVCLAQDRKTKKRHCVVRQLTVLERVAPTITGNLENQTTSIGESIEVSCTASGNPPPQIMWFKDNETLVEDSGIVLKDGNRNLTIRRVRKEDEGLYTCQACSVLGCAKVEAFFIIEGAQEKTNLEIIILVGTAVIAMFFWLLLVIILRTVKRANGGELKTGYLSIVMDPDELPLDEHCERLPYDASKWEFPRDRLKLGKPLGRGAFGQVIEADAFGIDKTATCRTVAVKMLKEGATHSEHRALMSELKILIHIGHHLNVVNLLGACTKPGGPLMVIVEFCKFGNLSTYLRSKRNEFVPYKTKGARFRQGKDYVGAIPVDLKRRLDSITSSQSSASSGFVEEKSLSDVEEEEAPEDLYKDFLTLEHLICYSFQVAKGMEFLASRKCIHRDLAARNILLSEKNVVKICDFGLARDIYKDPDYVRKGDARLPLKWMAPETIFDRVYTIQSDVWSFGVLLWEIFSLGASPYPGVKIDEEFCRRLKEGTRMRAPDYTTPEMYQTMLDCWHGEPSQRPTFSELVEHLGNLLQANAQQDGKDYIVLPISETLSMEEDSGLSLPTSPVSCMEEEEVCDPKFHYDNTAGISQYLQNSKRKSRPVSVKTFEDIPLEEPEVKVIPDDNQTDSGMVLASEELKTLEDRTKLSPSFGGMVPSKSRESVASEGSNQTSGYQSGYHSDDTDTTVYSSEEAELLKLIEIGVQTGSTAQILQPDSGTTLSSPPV
Observed: enzyme activity
Mode: inhibitor
Concentration: 0.5 µM
Relative to: control
Endpoint: remaining activity
Cn1sc(=O)n(Cc2ccccc2)c1=O: 89.4%
C#Cc1cccc(Nc2ncnc3cc(OCCOC)c(OCCOC)cc23)c1: 80.3%
Oc1ccc(-c2nc(-c3ccncc3)c(-c3ccc(F)cc3)[nH]2)cc1: 99.9%
COc1ccc(C(=O)Nc2sc3c(c2C(N)=O)CCCC3)cc1OC: 78.2%
CN(C)c1ccc(C=C2C(=O)Nc3ccccc32)cc1: 94.3%
COc1cc2nccc(Oc3ccc(NC(=S)NC(=O)c4ccccc4C)cc3)c2cc1OC: 74.1%
Cc1cccc(-c2[nH]c(C(C)(C)C)nc2-c2ccc3c(c2)OCO3)n1: 94.7%
O=S(=O)(c1cccc2cnccc12)N1CCCNCC1: 86.9%
O=C1NC(=O)C(c2cn(CCCO)c3ncccc23)=C1c1cnccn1: 82.1%
Nc1[nH]nc2nc3ccccc3nc12: 95.8%
O=C(CCCc1ccc(-c2ccccc2F)cc1)Nc1ccc(O)cc1: 101%
CCOC(=O)c1c(C)[nH]c(/C=C2\C(=O)Nc3ccccc32)c1C: 93.2%
COc1ccc(OC)c2c(=S)c3ccccc3[nH]c12: 108%
O=c1c2ccccc2[nH]c(=S)n1CCN1CCC(=C(c2ccc(F)cc2)c2ccc(F)cc2)CC1: 93.1%
Cn1c2ccccc2c2c3c(c4c5ccccc5n(CCC#N)c4c21)CNC3=O: 57%
Nc1ccc2ncnc(NCCc3ccc(Oc4ccccc4)cc3)c2c1: 91.7%
Cc1ccc(NC(=O)c2ccc(CN3CCN(C)CC3)cc2)cc1Nc1nc(-c2cccnc2)cs1: 106%
CC(C)[C@H](CO)Nc1nc(Nc2cc(N)cc(Cl)c2)c2ncn(C(C)C)c2n1: 102%
OCC(O)CCON=C1C(c2c(O)[nH]c3ccccc23)=Nc2ccccc21 (centres unmarked): 56.4%
COc1cc2ncnc(Nc3ccc(Oc4ccccc4)cc3)c2cc1OC: 92.1%
O=C(Nc1cccc(Nc2cc(Nc3cccc(C(F)(F)F)c3)ncn2)c1)C1CC1: 101%

Series 2
Target: ABI1, truncated, D143A, DHFR fusion (Arabidopsis thaliana, UniProt P49597)
Method: DHFR PCA, dose-response
Matrix: yeast
Setting: Hill fit, not affinity
Together with: (+)-ABA, dose series
Direction: lower = more sensitive
Endpoint: ABA EC50
Parent: PYL1, truncated, DHFR fusion (Arabidopsis thaliana, UniProt Q8VZS8); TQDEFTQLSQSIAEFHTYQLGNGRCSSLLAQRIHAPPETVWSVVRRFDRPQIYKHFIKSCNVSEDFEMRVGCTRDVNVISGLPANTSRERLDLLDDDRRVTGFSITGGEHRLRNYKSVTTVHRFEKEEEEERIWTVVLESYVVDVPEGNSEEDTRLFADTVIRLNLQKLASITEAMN
A84W: 3.79 µM
G107V: 1750 µM
N85F: 62.7 µM
Q2L: 7.49 µM
K126D: 1.29 µM

Series 3
SMILES: CC(=O)C1=C(C)N(c2cccc(C(F)(F)F)c2)C(=O)N[C@@H]1c1ccc(C#N)nc1
Concentration: 1 µM
Endpoint: remaining binding
Tyrosine-protein kinase JAK3, JH1 (JAK3, Homo sapiens, UniProt P52333); cell-free assay, competition with immobilised ligand: 70.5%
Cyclin-dependent kinase 11A (CDK11A, Homo sapiens, UniProt Q9UQ88); binding, competition with immobilised ligand: 95.7%
Tyrosine-protein kinase ZAP-70 (ZAP70, Homo sapiens, UniProt P43403); cell-free assay, competition with immobilised ligand: 88.1%
cGMP-dependent protein kinase 2 (PRKG2, Homo sapiens, UniProt Q13237); cell-free assay, competition with immobilised ligand: 100%
Calcium/calmodulin-dependent protein kinase type II subunit beta (CAMK2B, Homo sapiens, UniProt Q13554); cell-free assay, competition with immobilised ligand: 95.7%
Rhodopsin kinase GRK1 (GRK1, Homo sapiens, UniProt Q15835); cell-free assay, competition with immobilised ligand: 99.2%
Serine/threonine-protein kinase WNK1 (WNK1, Homo sapiens, UniProt Q9H4A3); cell-free assay, competition with immobilised ligand: 89%
Serine/threonine-protein kinase MRCK gamma (CDC42BPG, Homo sapiens, UniProt Q6DT37); competition binding: 79.3%
Transient receptor potential cation channel subfamily M member 6 (TRPM6, Homo sapiens, UniProt Q9BX84); cell-free assay, competition with immobilised ligand: 83.8%
Protein kinase C epsilon type (PRKCE, Homo sapiens, UniProt Q02156); cell-free assay, competition with immobilised ligand: 73.9%
Cyclin-dependent kinase 18 (CDK18, Homo sapiens, UniProt Q07002); cell-free assay, competition with immobilised ligand: 85.1%
Dual serine/threonine and tyrosine protein kinase (DSTYK, Homo sapiens, UniProt Q6XUX3); cell-free assay, competition with immobilised ligand: 76.9%
Receptor-type tyrosine-protein kinase FLT3 (FLT3, Homo sapiens, UniProt P36888, D835Y); cell-free assay, competition with immobilised ligand: 93.9%
Ribosomal protein S6 kinase alpha-3, C-terminal kinase domain (RPS6KA3, Homo sapiens, UniProt P51812); cell-free assay, competition with immobilised ligand: 99.2%
Protein kinase C theta type (PRKCQ, Homo sapiens, UniProt Q04759); cell-free assay, competition with immobilised ligand: 83.3%
Myosin light chain kinase (MYLK3, Homo sapiens, UniProt Q32MK0); cell-free assay, competition with immobilised ligand: 100%
Serine/threonine-protein kinase RIO1 (RIOK1, Homo sapiens, UniProt Q9BRS2); cell-free assay, competition with immobilised ligand: 87.5%
Serine/threonine-protein kinase WNK4 (WNK4, Homo sapiens, UniProt Q96J92); cell-free assay, competition with immobilised ligand: 100%
Fibroblast growth factor receptor 3 (FGFR3, Homo sapiens, UniProt P22607); cell-free assay, competition with immobilised ligand: 96.4%
MAP kinase-activated protein kinase 2 (MAPKAPK2, Homo sapiens, UniProt P49137); cell-free assay, competition with immobilised ligand: 82.6%
Phosphatidylinositol 4,5-bisphosphate 3-kinase catalytic subunit alpha isoform (PIK3CA, Homo sapiens, UniProt P42336, M1043I); cell-free assay, competition with immobilised ligand: 100%
Insulin receptor-related protein (INSRR, Homo sapiens, UniProt P14616); cell-free assay, competition with immobilised ligand: 99.6%
Serine/threonine-protein kinase tousled-like 2 (TLK2, Homo sapiens, UniProt Q86UE8); cell-free assay, competition with immobilised ligand: 100%
Calcium/calmodulin-dependent protein kinase type 1D (CAMK1D, Homo sapiens, UniProt Q8IU85); cell-free assay, competition with immobilised ligand: 79.4%
Epidermal growth factor receptor (EGFR, Homo sapiens, UniProt P00533, L858R/T790M); cell-free assay, competition with immobilised ligand: 100%

Series 4
Target: Microphthalmia-associated transcription factor, full length (MITF, Homo sapiens, UniProt O75030-10, residues 1-413)
Method: protein-binding microarray
Form: hairpin DNA
Matrix: in vitro
Concentration: not given
Setting: whole hairpin DNA, median over replicate spots
Relative to: not given
Direction: higher = stronger binding
Endpoint: median fluorescence
CACTTAGCCGGTGATTTTGGTCCTCCAAAATCACCGGCTAAGTGACACTC (5mC at 35): 4520 a.u.
GAGGCCCGGCACGTGCTGCCTCCTGGCAGCACGTGCCGGGCCTCACACTC (5mC at 7 37): 23200 a.u.
GAGGCCTAGCACGTGGTGCCTCCTGGCACCACGTGCTAGGCCTCACACTC: 23300 a.u.
GAGGCCTAGCACGTGCGGCCTCCTGGCCGCACGTGCTAGGCCTCACACTC (5mC at 16 28): 17700 a.u.
GAGGCCCGGCACGTGCTGCCTCCTGGCAGCACGTGCCGGGCCTCACACTC (5mC at 7): 22700 a.u.
CACTTAGCGCGTGATTTTGGTCCTCCAAAATCACGCGCTAAGTGACACTC: 19800 a.u.
CACTTAGCACGTGCGTTTGGTCCTCCAAACGCACGTGCTAAGTGACACTC (5mC at 14 30): 16100 a.u.
GAGGCCTAGCTCGTGCTGCCTCCTGGCAGCACGAGCTAGGCCTCACACTC: 9610 a.u.
